Results gathered from unrelated publications.
A part holds a random share of what one study measured.

Set 1 — method: protein-binding microarray; molecule type: double-stranded DNA, one strand shown; medium: in vitro; tested at: 2200 nM top; setting: 60-bp whole probe; with: salmon DNA 0.4 mg/ml; reference: random background probes; direction: higher = stronger binding; shared flanks, not repeated: GCCTAGCAC … GTCTTGATTCGCTTGACGCTGCTG
Target: Interferon regulatory factor 7, full length, phosphomimetic (IRF7, Homo sapiens, UniProt Q92985, residues 1-503, S471D/S472D/S475D/S476D/S477D/S483D/S484D/S487D)
Target sequence (chain): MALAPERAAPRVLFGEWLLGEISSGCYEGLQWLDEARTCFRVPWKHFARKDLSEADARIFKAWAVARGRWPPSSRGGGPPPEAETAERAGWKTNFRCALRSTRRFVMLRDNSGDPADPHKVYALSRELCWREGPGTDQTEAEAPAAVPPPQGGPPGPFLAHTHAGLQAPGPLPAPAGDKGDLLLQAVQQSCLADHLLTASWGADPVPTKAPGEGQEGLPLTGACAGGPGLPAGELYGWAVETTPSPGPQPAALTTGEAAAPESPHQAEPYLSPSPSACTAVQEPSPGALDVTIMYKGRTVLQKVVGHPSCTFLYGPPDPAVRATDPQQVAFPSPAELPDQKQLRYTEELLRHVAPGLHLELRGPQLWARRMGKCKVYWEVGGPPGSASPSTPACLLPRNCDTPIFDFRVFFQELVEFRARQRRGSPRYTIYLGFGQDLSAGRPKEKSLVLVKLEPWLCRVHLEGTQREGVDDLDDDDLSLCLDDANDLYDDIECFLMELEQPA
Under “fitted relative affinity”, `TTACGTATCCTACTGCTTTAGTGCTAG` is recorded as 2.16 z-score.
For `TCAGATTTCAGTTTTCTACTGTGCTAG`, “fitted relative affinity” read 2.48 z-score.
`TAGCTTCTCAATTAAAAAAAGTGCTAG` — result for “fitted relative affinity”: -0.509 z-score.
For `TTAGGTATCGGGACTGGATTAGTGCTA`, “fitted relative affinity” read -0.199 z-score.
`GACGGGTCCGGTTTCGGGACGTGCTAG`: “fitted relative affinity” 2.84 z-score.
For `TCACCTCTCTGTCCCCCTTTGTGCTAG`, “fitted relative affinity” read 1.98 z-score.

Set 2 — method: protein binding microarray; molecule type: double-stranded DNA, one strand shown; medium: in vitro; tested at: not given; reference: not given; direction: higher = stronger binding
Target: Histone acetyltransferase KAT6A, both winged helices, GST fusion (KAT6A, Homo sapiens, UniProt Q92794, residues 1-181)
Setting: 8-mer, flanks averaged, mean of 2 arrays, mostly near background
Construct (chain): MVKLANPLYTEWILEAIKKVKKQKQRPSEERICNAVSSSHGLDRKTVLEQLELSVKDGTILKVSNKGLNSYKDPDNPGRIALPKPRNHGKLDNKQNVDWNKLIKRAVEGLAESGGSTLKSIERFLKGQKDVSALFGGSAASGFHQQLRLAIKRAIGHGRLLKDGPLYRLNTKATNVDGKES
The E-score of `GACGGGAA` is reported as 0.318.
`AGAAACCA` has an E-score of -0.0649.
`ATAAAAGG` has an E-score of -0.18.
The E-score of `CTCATATC` is reported as -0.131.
`CAGCATGC` gave an E-score of 0.109.

Set 3 — method: RNA Bind-n-Seq; molecule type: RNA; medium: in vitro; tested at: 365 nM; reference: no-protein control; direction: higher = stronger binding
Target: RNA binding protein fox-1 homolog 2, RRM domain, GST-SBP tag (RBFOX2, Homo sapiens, UniProt O43251-10, residues 100-194)
Setting: natural RNA segment, single round, ends assumed
Target sequence (chain): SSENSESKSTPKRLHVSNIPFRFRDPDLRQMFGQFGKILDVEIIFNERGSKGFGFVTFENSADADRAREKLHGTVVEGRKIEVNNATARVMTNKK
`GGGAGUUCUACAGUCCGACGAUCGAACUAAAUGAAGGUUAAAACAUGCUUUAGAAAAAUGCACUGAUCUCCGCACUGUGUGUACAGUAUUGGACAAAGGAUUUAUUCAUUUUGUUGCAUUAUUUUGAAUAUUGUGGAAUUCUCGGGUGCCAA`: “RBNS enrichment (R)” 0.517.
For `GGGAGUUCUACAGUCCGACGAUCCGGCUUCAUUCACCCCCACUUGGAUUCUAAACAUGACCAGUGAAAUAGUGAAAGCUGACCACAGUUGUUCCCAAAUAAAGGUCGGCAGCUCCUACCAGGUCUGGGAUUGAUGGAAUUCUCGGGUGCCAA`, “RBNS enrichment (R)” read 0.25.
For `GGGAGUUCUACAGUCCGACGAUCCCAGAUUGUUUCUGCUUUGGGUGCAGCUGUUUAGUUCAGAGUUAUAUUACAGAGAAUUAUUUUCUGAGAUAAUCUUAAACUAGAAUGUUCAAAACUAAUUGAUAAUUGAAUGGAAUUCUCGGGUGCCAA`, “RBNS enrichment (R)” read 0.585.
`GGGAGUUCUACAGUCCGACGAUCAUGAUCUUUGUCUUUCCUUUAUCUUGCUUUAUCCUCUUAUCCAAUUCUAGACUCUUAAAUAAUCACUGUAUUUUUCUCAAGUAUUUGUUAUUUUUUAUUAUCCUUUAGAUUGGAAUUCUCGGGUGCCAA`: “RBNS enrichment (R)” 0.938.

Further values, each from its own experiment
`PhoQ, residues 284 288 289 292 302 303 TLSLKA` has a fold induction of 2.07 (PhoP, residues 12 14 15 18 19 FWNTL (Escherichia coli, UniProt P23836); Sort-seq, item: YFP reporter; E. coli; PhoQ-PhoP variant library, with: 10 µM Mg2+; reference: high Mg2+ state, higher = stronger signaling).

For quick reference, copied from above (set 1):
For `TTAGGTATCGGGACTGGATTAGTGCTA`, “fitted relative affinity” read -0.199 z-score.
`GACGGGTCCGGTTTCGGGACGTGCTAG`: “fitted relative affinity” 2.84 z-score.
